Published values gathered from unrelated publications.
Parts stem from different laboratories: compare values within a part only. Substitutions count along the parent as printed.

Study 1
Target: RING finger protein unkempt homolog, zinc fingers 1-6, GST-SBP tag (UNK, Homo sapiens, UniProt Q9C0B0, residues 30-357)
Technique: RNA Bind-n-Seq
Molecule type: RNA
Sample: in vitro
Concentration: not given
Setting: RNA with constant flanks, human-mouse chimeric sites, ends assumed
Baseline: input RNA pool
Reading: higher = stronger binding
All sequences stand within: GGGAGUUCUACAGUCCGACGAUC … CAACAGAGGAUUGAGCAUCA
Construct (chain): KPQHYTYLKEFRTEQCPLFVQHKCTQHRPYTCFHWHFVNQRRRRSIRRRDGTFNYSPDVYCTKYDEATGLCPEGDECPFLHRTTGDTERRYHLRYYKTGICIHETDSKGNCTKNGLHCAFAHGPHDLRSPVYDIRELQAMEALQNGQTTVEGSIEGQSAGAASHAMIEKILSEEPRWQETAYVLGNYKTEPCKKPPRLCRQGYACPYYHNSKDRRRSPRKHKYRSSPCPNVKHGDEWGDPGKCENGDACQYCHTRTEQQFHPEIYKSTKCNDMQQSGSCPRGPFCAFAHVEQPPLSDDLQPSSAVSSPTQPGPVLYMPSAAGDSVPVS
`AUCAAAUACUUUGGGGACAUCAUUAGUGUGGGACAGAGACUGUUGCAAGGAGCUCGGAUCUUAGGGAUUCCUGUUAUCAUAACGGAACAAUACCCCAAAGGACUUGGGAGCACGGUUCAA` has a bound/input enrichment of 0.225 ratio.
`UUACCCGAGAACGAGGAUGAGCUGGAGAGCACCAACAGGCGCUACACCAAGAGGGACUGCAGCACUUUCCUCAGAACUAGUGAGACGGGCAUUGUGGAUCAGGUUAUGGUCACUCUCAAC` has a bound/input enrichment of 0.13 ratio.
The bound/input enrichment of `GUGUCCUGCUUUCAACUUAAAUCACUGCAUUUUUACUACUAUUCUGUGAGCAUCAGGACUGUAGCGCUGUGUCACCACAUGAGAGUUCAGAAGCAGCCUUUCUGUGGAGGGUGGGAAUGA` is reported as 0.323 ratio.
`UAUAUCACCAAUGUCCUACAAAAUCCUGACUUGGCUCUGAGAAUGGCUGUACGUAAUAACUUAGCUGGUGCUGAAGAACUCUUUGCCCGGAAAUUUAAUGCUCUCUUCGCCCAGGGAAAC` gave a bound/input enrichment of 0.557 ratio.
`GGGGAGAAACCUUACGAGUGUGUGCAGUGUGGGAAAUCCUACAGUCAAAGCUCAAAUCUCUUCAGACAUCAGAGACGACACAAUGCAGAAAAACUUUUGAAUGUUGUGAAAGUUUAAGAA` has a bound/input enrichment of 0.0869 ratio.
The bound/input enrichment of `ACUCUUGACUCUUUCCAUCCUCUUCCUUUCCCUCUUGAUAUUCAAGGCCAUGAAUCCCAAAAUAACAAUCUAUCUUAGAGGCUAGCAAACAGAGGUGGAAUAAAUCCACCCCAGUGUCUC` is reported as 0.568 ratio.
For `UUUCUACUGCAGCAAACGAUGCUAAGAAUUAAGGAUCCUAAGAAGUCCCUGGAUUUUUAUACGAGGGUUCUUGGAAUGACCCUCCUGCAGAAGCUUGACUUCCCUGCUAUGAAGUUUUCG`, the bound/input enrichment was 0.107 ratio.
With `GAGCGUCUCGCUCGAACUGGGAUCAUCGUGACCACUAGUGAGGCUGUUCUGCUUCAGCUGGUGGCUGACAAAGACCACCCGAAGUUCAAGGAAAUUCAGAACCUAAUUAAGGCGAGUGCC` the bound/input enrichment was 0.0833 ratio.
For `GAUCAUGGAACCAGAAUCAGAAAUGAAAUGAGAUUACCCAGACGAGCCAAAACAGCUGCGCUACAGAAAAGUAAACUUAACCUUGCAGAGUUCCUUAAUGAAGAUACAAGUUAAGAGAGC`, the bound/input enrichment was 0.13 ratio.
`UGACAAGGGCACUGCAGAGCCAUGCCUUUCCUUGACAUACAGAAAAAGCUGGGCAUCAACAUAGAUCGGCACUUUAUAAUCCAGAGUGCAGAACAGCCCUAUAAGAACGCCGCUCGGUGC` has a bound/input enrichment of 0.0921 ratio.
`UUGUCGAAGACUCAACGAAAGACUCCAACCGUUAUUCAUAAACAUUAUCAAAUUCAUCGGAUUCGACAUUUUUAUAUGAGAAAAGUCAAAUUUACUCAACAGAAUUACCAUGACAGACUG` gave a bound/input enrichment of 0.497 ratio.

Study 2
Target: Sal-like protein 4, full length isoform A (SALL4, Homo sapiens, UniProt Q9UJQ4, residues 1-1053)
UniProt Q9UJQ4, sequence (whole entry, looked up): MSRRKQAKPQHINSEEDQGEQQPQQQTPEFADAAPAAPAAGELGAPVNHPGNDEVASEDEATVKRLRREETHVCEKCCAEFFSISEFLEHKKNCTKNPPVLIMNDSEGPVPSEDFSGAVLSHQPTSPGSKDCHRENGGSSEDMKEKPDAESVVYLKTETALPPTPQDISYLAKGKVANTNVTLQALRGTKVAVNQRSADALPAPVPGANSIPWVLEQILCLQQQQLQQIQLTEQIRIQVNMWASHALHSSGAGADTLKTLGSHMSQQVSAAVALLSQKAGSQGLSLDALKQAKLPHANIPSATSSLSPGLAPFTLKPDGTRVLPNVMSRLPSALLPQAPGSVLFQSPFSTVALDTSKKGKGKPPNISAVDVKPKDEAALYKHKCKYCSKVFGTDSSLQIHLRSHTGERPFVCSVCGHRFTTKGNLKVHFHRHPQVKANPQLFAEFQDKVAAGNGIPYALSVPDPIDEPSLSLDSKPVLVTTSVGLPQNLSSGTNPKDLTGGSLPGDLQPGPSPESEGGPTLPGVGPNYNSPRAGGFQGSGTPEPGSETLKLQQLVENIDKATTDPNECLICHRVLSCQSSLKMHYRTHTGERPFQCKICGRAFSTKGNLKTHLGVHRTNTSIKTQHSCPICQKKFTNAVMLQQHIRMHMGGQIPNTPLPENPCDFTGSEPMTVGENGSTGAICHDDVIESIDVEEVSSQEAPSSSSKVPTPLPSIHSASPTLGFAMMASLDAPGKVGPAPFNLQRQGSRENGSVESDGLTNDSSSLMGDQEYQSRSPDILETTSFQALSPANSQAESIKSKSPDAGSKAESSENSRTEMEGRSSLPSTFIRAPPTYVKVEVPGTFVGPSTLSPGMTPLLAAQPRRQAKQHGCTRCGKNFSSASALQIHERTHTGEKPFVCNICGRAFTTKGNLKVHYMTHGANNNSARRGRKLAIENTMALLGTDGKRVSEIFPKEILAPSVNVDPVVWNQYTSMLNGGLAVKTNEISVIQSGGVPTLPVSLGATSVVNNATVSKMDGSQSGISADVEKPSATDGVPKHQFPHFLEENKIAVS
Technique: universal PBM
Molecule type: double-stranded DNA, one strand shown
Sample: in vitro
Concentration: 600 nM
Setting: 8-mer, flanks averaged, mean of replicates
Reading: higher = stronger binding
`CTCCCGCC` gave an E-score of -0.249.
For `ACCTTCTG`, the E-score was 0.0253.
`CCACAGCA` has an E-score of -0.0778.
With `AGGGGCAC` the E-score was -0.312.
`TTGAGCAA` has an E-score of 0.0927.
The E-score of `GGGCCGCA` is reported as -0.291.
For `ACCTTTCG`, the E-score was -0.152.
For `GGAACGAC`, the E-score was -0.139.
The E-score of `CCATGTGC` is reported as -0.141.
With `TCGAGGAA` the E-score was 0.0233.
With `CGCTTGAG` the E-score was -0.113.
`GCGGATTA` has an E-score of -0.0449.
For `GTCGATCA`, the E-score was -0.0298.
The E-score of `CGTGATAC` is reported as 0.0688.
`CTAAATAG` has an E-score of 0.15.
For `AATCTAGC`, the E-score was -0.00464.
The E-score of `ACGTAAGT` is reported as 0.0966.
The E-score of `TCATGCGA` is reported as -0.00234.
`ACATCGGT` has an E-score of -0.0835.
For `AAGGAGCT`, the E-score was 0.0322.
`GCCGTGGA` has an E-score of -0.234.
With `ACAGGAGC` the E-score was -0.0256.
For `ATGTCACC`, the E-score was -0.0454.
With `CTAGACGC` the E-score was -0.0846.

Study 3
Target: Centromere-binding protein 1, full length, His-tagged (CBF1, Saccharomyces cerevisiae, UniProt P17106, residues 1-351)
UniProt P17106, sequence (whole entry, looked up): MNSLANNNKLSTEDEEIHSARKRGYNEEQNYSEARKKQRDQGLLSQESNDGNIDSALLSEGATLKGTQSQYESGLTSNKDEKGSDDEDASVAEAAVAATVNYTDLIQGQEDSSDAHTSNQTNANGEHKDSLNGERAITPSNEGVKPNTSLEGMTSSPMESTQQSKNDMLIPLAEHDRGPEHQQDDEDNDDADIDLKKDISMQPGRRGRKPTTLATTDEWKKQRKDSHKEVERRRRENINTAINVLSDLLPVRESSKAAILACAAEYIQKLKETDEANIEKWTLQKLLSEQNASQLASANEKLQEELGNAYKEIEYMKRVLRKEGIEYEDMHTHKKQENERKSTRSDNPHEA
Technique: competition protein-binding microarray
Molecule type: double-stranded DNA, one strand shown
Sample: in vitro
Concentration: 2 µM
Setting: whole 60-bp probe, lowest competitor level
With: Pho4 competitor, 0.05 µM
Reading: higher = stronger binding
All sequences stand within: … GTCTTGATTCGCTTGACGCTGCTG
For `CTTCTGTAAATTTGCCCTGTGGGTGGACGCGCCCCG`, the fluorescence intensity was 82 a.u.
For `CTTTCCCGATCTTGTACGGTGGGTGTAGCACATTTG`, the fluorescence intensity was 65.3 a.u.
For `AAAGCGGTAATTTGTCACCCCACTTCACATATCTAT`, the fluorescence intensity was 79.6 a.u.
The fluorescence intensity of `CGGGGTTAAGTTTGTCACGTGGGTGGCTTGCAGCAG` is reported as 3120 a.u.
The fluorescence intensity of `GTCTTGTCTCATTGGGGTGTGGGTGTCCCCACTTCA` is reported as 79.3 a.u.
With `TGAAGACAACTCGGCCACGTGGGTAAAAGAAGAAGC` the fluorescence intensity was 1620 a.u.
The fluorescence intensity of `CATACCCAACCTTGACGAGTGGGTGAAGATATTTGT` is reported as 59.8 a.u.
For `CATTCACTATTTTGTCATGTGACGGAATGCCCCAAA`, the fluorescence intensity was 2190 a.u.
For `CGTTTCCTGGGAAATCACGTGCTCTGTCATTGAATT`, the fluorescence intensity was 8980 a.u.
The fluorescence intensity of `TGCAAGTGAGTATGGCATGTGGTGGTGGGATTAGAG` is reported as 92 a.u.
With `CGGAAGCGCTCACTTCACGTGCTTTAAAAGCTTCTC` the fluorescence intensity was 1000 a.u.
For `GCAATCGATAACAGGGACGTGCGATGCTAATGTAAT`, the fluorescence intensity was 72.3 a.u.
`CCAACTTTTTTGGATCACATGATAAGAGTTACTATT` has a fluorescence intensity of 2810 a.u.
With `CTTTCCCGATCTTGTGGGGTGGGTGTAGCACATTTG` the fluorescence intensity was 81.1 a.u.
For `AGAAACGAAACAAATCATGTGTTACCCGTCCTGGAC`, the fluorescence intensity was 295 a.u.
With `CTGATTCGTTGGGCTTACGTGATGGTTCCTGGCATT` the fluorescence intensity was 84.5 a.u.
`TGCGCAACAACTTGAAATGTGGGTGTATGTCTAGAA` has a fluorescence intensity of 73.1 a.u.
`ACCTTGTTCCAATTGTTCGTGATGGATTTCAACGGA` has a fluorescence intensity of 75.8 a.u.
`CCCGATCCTTCTTACCGCGTGCTTTGTGAAAAGCAA` gave a fluorescence intensity of 113 a.u.
The fluorescence intensity of `CATACCCAACCTTGCGCTGTGGGTGAAGATATTTGT` is reported as 68.4 a.u.
With `GTCTTGTCTCATTGTAAAGTGGGTGTCCCCACTTCA` the fluorescence intensity was 79.7 a.u.
`CTTTTCACTCTTCATCACATGATATTACCTTTACAT` gave a fluorescence intensity of 1110 a.u.
`GAACCTCACTGAAGCACCGTGAATAACCCCATAAAT` gave a fluorescence intensity of 77.1 a.u.
The fluorescence intensity of `TCACAAGATGATTGTCATGAAATTCTCTGTCTCTCC` is reported as 90.6 a.u.

Study 4
Target: CEBPA, bZIP domain (human)
Technique: DHFR protein complementation
Sample: yeast
Setting: single substitutions, most at no-binding floor
Baseline: wild-type JUN-FOS pair
Reading: higher = stronger binding
Starting sequence: JUN, bZIP domain (human); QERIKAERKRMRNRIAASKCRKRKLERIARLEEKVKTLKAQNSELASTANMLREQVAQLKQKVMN; partner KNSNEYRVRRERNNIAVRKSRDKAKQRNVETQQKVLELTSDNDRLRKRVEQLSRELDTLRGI
For `K39P`, the binding fitness was -1.44 natural log.
`L31P` gave a binding fitness of -1.48 natural log.
`L45C` gave a binding fitness of -1.55 natural log.
With `I28W` the binding fitness was -1.42 natural log.
`R30Q` has a binding fitness of -1.28 natural log.
`S43M` has a binding fitness of -1.42 natural log.
`A46Y` gave a binding fitness of -1.56 natural log.
With `L31V` the binding fitness was -1.44 natural log.
The binding fitness of `E54C` is reported as -1.55 natural log.
`L31G` gave a binding fitness of -1.4 natural log.
With `L38S` the binding fitness was -1.47 natural log.
`E33F` gave a binding fitness of -1.61 natural log.
The binding fitness of `N42R` is reported as -1.43 natural log.
`V35H` gave a binding fitness of -1.48 natural log.
With `A46M` the binding fitness was -1.42 natural log.
`M51P` gave a binding fitness of -1.48 natural log.
For `A29D`, the binding fitness was -1.35 natural log.
For `Q55I`, the binding fitness was -1.47 natural log.
The binding fitness of `A29Q` is reported as -1.44 natural log.
For `L45P`, the binding fitness was -1.5 natural log.
`K39M` gave a binding fitness of -1.38 natural log.
For `I28V`, the binding fitness was -1.45 natural log.

Study 5
Target: ABI1, truncated, D143A, DHFR fusion (Arabidopsis thaliana)
Technique: DHFR PCA, deep sequencing
Sample: yeast
Setting: methotrexate growth selection, single substitutions
With: (+)-ABA 2500 µM
Baseline: wild-type fitted maximum
Reading: higher = stronger binding
Starting sequence: PYL1, truncated, DHFR fusion (Arabidopsis thaliana); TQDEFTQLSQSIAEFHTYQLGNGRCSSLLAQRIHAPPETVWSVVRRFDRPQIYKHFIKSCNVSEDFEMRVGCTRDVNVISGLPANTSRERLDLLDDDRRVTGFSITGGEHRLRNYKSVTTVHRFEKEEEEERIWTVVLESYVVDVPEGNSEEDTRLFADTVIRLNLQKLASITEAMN; partner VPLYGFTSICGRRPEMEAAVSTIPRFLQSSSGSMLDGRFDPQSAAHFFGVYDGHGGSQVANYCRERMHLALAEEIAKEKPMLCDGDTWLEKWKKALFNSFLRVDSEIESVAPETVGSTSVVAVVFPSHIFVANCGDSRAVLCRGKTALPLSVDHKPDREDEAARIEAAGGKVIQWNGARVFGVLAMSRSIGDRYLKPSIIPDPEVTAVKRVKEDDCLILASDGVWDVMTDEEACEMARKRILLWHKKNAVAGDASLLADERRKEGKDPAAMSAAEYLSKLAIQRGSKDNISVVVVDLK
`L29D` — result for “relative binding score”: 40.6%.
`R155M` — result for “relative binding score”: 94.1%.
`K116W` — result for “relative binding score”: 50.6%.
`N61E`: “relative binding score” 102%.
`L169G`: “relative binding score” 2.15%.
`H110G` — result for “relative binding score”: 89.5%.
For `N77I`, “relative binding score” read 93.4%.
For `T101S`, “relative binding score” read 98.9%.
`F157D` — result for “relative binding score”: 1.04%.
Under “relative binding score”, `G23P` is recorded as 81.9%.
Under “relative binding score”, `T6D` is recorded as 105%.
`N22L` — result for “relative binding score”: 100%.
`I133H`: “relative binding score” 110%.
For `A30G`, “relative binding score” read 96.2%.

A few entries again (study 4):
`R30Q` has a binding fitness of -1.28 natural log.
For `A29D`, the binding fitness was -1.35 natural log.
`L31P` gave a binding fitness of -1.48 natural log.
The binding fitness of `E54C` is reported as -1.55 natural log.
With `L31V` the binding fitness was -1.44 natural log.
For `K39P`, the binding fitness was -1.44 natural log.
`L31G` gave a binding fitness of -1.4 natural log.
`E33F` gave a binding fitness of -1.61 natural log.
